Experimental data of several laboratories.
Each line is one published result; not all experiments were run side by side. “And” joins repeats or separate records; there may be more than shown. ± gives the spread as reported.
UCHL1: Ubiquitin carboxyl-terminal hydrolase isozyme L1 (UCHL1, Homo sapiens, UniProt P09936)
Chain of UniProt P09936 (whole entry, looked up): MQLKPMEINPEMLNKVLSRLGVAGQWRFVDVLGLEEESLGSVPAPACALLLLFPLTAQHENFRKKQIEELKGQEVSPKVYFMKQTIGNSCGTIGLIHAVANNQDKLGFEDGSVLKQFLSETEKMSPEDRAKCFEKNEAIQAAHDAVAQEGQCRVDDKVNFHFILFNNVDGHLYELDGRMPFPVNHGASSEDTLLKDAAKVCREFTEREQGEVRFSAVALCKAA

Structure (SMILES)	tested on	assay	test system	conditions	how to read	quantity	value
C=CC(=O)c1cccnc1Nc1cc(C)ccc1OC	MCF7	firefly luciferase reporter	–	100 µM, 6 h	baseline: vehicle	TEAD reporter activity	1.9 ± 0.3%
CC(=O)Nc1ccc(/C(C)=N/N=c2\sc(C(C)=O)nn2-c2ccc(C)cc2)cc1	MCF7	MTT	–	0.312 µM	–	cytotoxicity	0.259%
O=C(Nc1nnc2[nH]c(=S)[nH]c(-c3ccc(Cl)cc3)c1-2)c1ccccc1	MCF7	SRB	–	10 µM, NCI60 single-dose screen	baseline: untreated	cell growth	91.5%
C=C1CN(S(=O)(=O)c2ccc(N(C)C)cc2)CCCN(CC2CCCCC2)CCCN(S(=O)(=O)c2cccc3ccccc23)C1.Cl	MCF7	–	–	1 µM, 48 h, with: progranulin 1 µg/mL	–	mammosphere formation	inhibited
O=C(Nc1nnc2n3c(=S)[nH][nH]c3nc(-c3ccc(Cl)cc3)c1-2)c1ccccc1	MCF7	SRB	–	10 µM, NCI60 single-dose screen	baseline: untreated	cell growth	84.3%
C=CC(=O)c1cccnc1Nc1cc(NC(=O)c2ccccc2)ccc1OC	MCF7	firefly luciferase reporter	–	50 µM, 6 h	baseline: vehicle	TEAD reporter activity	44.2 ± 1.8%
CCc1ccc(NC(=O)C(C#N)=Cc2ccn(-c3ccccc3)n2)cc1	UCHL1	covalent, intact protein LC-MS	–	12.5 µM	–	labelling	12.8%
CCn1cc(-c2cc(Cn3ccoc3=N)cc3c2CCN([C@@H](C)c2cc(OC)ccn2)C3=O)c(C(F)(F)F)n1	MCF7	cell growth, inhibitor	–	120 h	–	EC50	> 30 µM
CCOC(=O)c1nn(-c2cccc(Cl)c2)/c(=N/N=C(\C)c2ccc(NC(=O)c3ccc(Cl)cc3)cc2)s1	MCF7	MTT	–	2.5 µM	–	cytotoxicity	96.5%
C=CC(=O)c1ccccc1Nc1cc(C(F)(F)F)ccc1OC	MCF7	firefly luciferase reporter	–	25 µM, 6 h	baseline: vehicle	TEAD reporter activity	74 ± 3.8%
CC(=O)c1nn(-c2ccc(C)cc2)/c(=N/N=C(\C)c2ccc(NC(=O)c3ccccc3)cc2)s1	MCF7	MTT	–	0.312 µM	–	cytotoxicity	95.6%
C[C@@H]1CC[C@@H]([C@@](O)(CNCc2cccc3ccccc23)COCc2ccccc2)[C@H](OCc2ccccc2)C1	MCF7	cell growth, inhibitor, MTT	–	72 h	–	IC50	5.67 µM
COc1ccc(OC)c(-c2nc3ccc(-c4nc5ccc(N6CCN(C)CC6)cc5[nH]4)cc3[nH]2)c1	MCF7	SRB	–	10 µM, 48 h	–	growth percent	75.5%
CCOc1cc(C=C(C#N)C(=O)Nc2nccs2)cc(Cl)c1O	UCHL1	covalent, intact protein LC-MS	–	12.5 µM	–	labelling	31.9%
O=C1NC(c2ccccc2)(c2ccccc2)C(=O)N1Cc1cn(-c2c3ccccc3nc3ccccc23)nn1	MCF7	NCI60 single-dose screen	–	10 µM	–	growth percentage	73.9%
CC(=NN=c1sc(N=Nc2ccc(C)cc2)c(C)n1C)c1c(O)c2ccccc2oc1=O	MCF7	cell growth, MTT	–	–	baseline: IC50 BJ-1 over MCF7	selectivity index	> 4.29
C[C@H](Nc1ccc2c(c1)OCCn1cc(N3C(=O)OC[C@H]3C(F)F)nc1-2)C(N)=O	MCF7	western blot, item: phospho-PKB/Akt Ser473	–	2 h	–	IC50	0.0066 µM
COc1cccc2c1C(=O)c1c(O)c3c(c(O)c1C2=O)C[C@@](O)(C(=O)CO)C[C@@H]3O[C@H]1C[C@H](N)[C@H](O)[C@H](C)O1	MCF7	flow cytometry	–	4.29 µM (IC50), 72 h	–	cells in S phase	24.8%
CC(=O)c1nn(-c2ccc(Cl)cc2)/c(=N/N=C(\C)c2ccc(NC(=O)c3ccc(C)cc3)cc2)s1	MCF7	–	–	2.5 µM	–	viability	7.93%
OCc1ccc(Nc2ccc3c(Nc4cccc(C(F)(F)F)c4)ncnc3c2)cc1	MCF7	annexin V/DAPI	–	concentration not given, 24 h	–	necrotic cells	8.27%
CCCN1CCN(c2ccc3[nH]c(-c4ccc5[nH]c(-c6cc(OC)c(OC)c(OC)c6)nc5c4)nc3c2)CC1	MCF7	SRB	–	10 µM, 48 h	–	growth percent	23.8%
CC/C(=C(\c1ccc(O)cc1)c1ccc(OCCN(C)C)cc1)c1ccccc1	MCF7	–	–	5 µM, 5 days	baseline: vehicle	cell growth	48%
CCC(=O)c1cccnc1Nc1cccc(C(F)(F)F)c1	MCF7	firefly luciferase reporter	–	50 µM, 6 h	baseline: vehicle	TEAD reporter activity	86.8 ± 4.8%
O=c1ccn(Cc2cn(-c3cc4ccccc4oc3=O)nn2)c(=O)[nH]1	MCF7	NCI60 single-dose screen	–	10 µM	–	growth percentage	95.8%

Structure (SMILES)	tested on	assay	test system	conditions	how to read	quantity	value
CCn1c(C)c(N=Nc2ccccc2)sc1=NN=C(C)c1c(O)c2ccccc2oc1=O	MCF7	cell growth, MTT	–	–	baseline: IC50 BJ-1 over MCF7	selectivity index	> 3.05
COc1ccc(C(F)(F)F)cc1Nc1ncccc1C(=O)O	MCF7	firefly luciferase reporter	–	50 µM, 6 h	baseline: vehicle	TEAD reporter activity	84.9 ± 6.3%
Cn1cncc1C1=CN(c2ncnc3[nH]cnc23)CCS1	MCF7	–	–	–	–	TGI	115 µM
O=C1CCCCC1=C1Sc2nc3ccc(S(=O)(=O)N4CCCC4)cc3nc2S1	MCF7	flow cytometry	–	3.82 µM	baseline: untreated	S-phase cells	44.5%
CC(=O)c1nn(-c2ccc(Cl)cc2)/c(=N/N=C(\C)c2ccc(NC(=O)c3ccccc3)cc2)s1	MCF7	–	–	5 µM	–	toxicity	95.6% and 95%
CCOC(=O)c1nn(-c2cccc(Cl)c2)/c(=N/N=C(\C)c2ccc(NC(=O)c3ccccc3)cc2)s1	MCF7	MTT	–	0.312 µM	–	cytotoxicity	93.7%
CC[C@@H](C)[C@H](NC(=O)c1cc(Cl)ccc1OCCNC(=O)OC(C)(C)C)C(=O)Nc1ccc([N+](=O)[O-])cc1Cl	MCF7	–	–	up to 10 µM, 72 h	–	antiproliferative activity	inactive
O=C(O)c1ccccc1Nc1cccc(C(F)(F)F)c1	MCF7	firefly luciferase reporter	–	50 µM, 6 h	baseline: vehicle	TEAD reporter activity	95.8 ± 2.4%
CC/C(=C(\c1ccccc1)c1ccc(OCCN(C)C)cc1)c1ccccc1	MCF7	RNA-seq, item: CT62 mRNA	–	1 µM, 24 h, E2-induced gene	baseline: DMSO vehicle	log2 fold change	-1.21
C=CC(=O)c1cccnc1Nc1cc(F)ccc1OC	MCF7	firefly luciferase reporter	–	50 µM, 6 h	baseline: vehicle	TEAD reporter activity	70.3 ± 3.5%
CCOc1ccc(-c2nc3cc(-c4nc5cc(N6CCN(C)CC6)ccc5[nH]4)ccc3[nH]2)cc1OCC	MCF7	SRB	–	10 µM, 48 h	–	growth percent	7.04%
O=[N+]([O-])c1ccc(O)c(C=NNc2ccc(Br)cc2)c1	MCF7	Muse cell cycle	–	IC50, 24 h	–	cells in S phase	18.8%
O=C1/C(=C/c2ccc3ccccc3c2O)NC(=S)N1c1ccccc1	MCF7	–	–	–	baseline: BJ1 IC50 over MCF7 IC50	selectivity index	1.3
CCn1c(C)c(C(C)=O)sc1=NN=C(C)c1c(O)c2ccccc2oc1=O	MCF7	cell growth, MTT	–	–	baseline: IC50 BJ-1 over MCF7	selectivity index	> 2.97
CC(=O)c1nn(-c2ccccc2Cl)/c(=N/N=C(\C)c2ccc(NC(=O)c3ccccc3)cc2)s1	MCF7	MTT	–	5 µM	–	cytotoxicity	93.8%
CN(C)C(=S)[N-]N=C(c1ccccn1)c1ccccn1.[O]=[V+]=[O]	MCF7	MTT	–	48 h	baseline: IC50 MCF-10A over IC50 MCF7	selectivity ratio	> 20
COC(=O)COc1c(Cc2cc(C(C)(C)CC(C)(C)C)cc(-n3nc4ccccc4n3)c2OCC(=O)OC)cc(C(C)(C)CC(C)(C)C)cc1-n1nc2ccccc2n1	MCF7	MTT	–	100 µM, 48 h	–	growth inhibition	95.1 ± 2.88%
CCOC(=O)c1sc(=NN=C(C)c2c(O)c3ccccc3oc2=O)n(CC)c1C	MCF7	cell growth, MTT	–	–	baseline: IC50 BJ-1 over MCF7	selectivity index	> 4.83
COc1cccc2c1C(=O)c1c(O)c3c(c(O)c1C2=O)C[C@@](O)(C(=O)CO)C[C@@H]3O[C@H]1C[C@H](N)[C@H](O)[C@H](C)O1	MCF7	cell viability, MTT	–	24 h	–	IC50	0.44 ± 0.03 µg/mL
O=[N+]([O-])c1cc(I)c(O)c(C=NNc2ccccc2)c1	MCF7	annexin V	–	IC50, 24 h	–	late apoptotic or dead cells	20.1%
C=CC(=O)c1cccnc1Nc1cc(C(F)(F)F)ccc1OC	MCF7	firefly luciferase reporter	–	50 µM, 6 h	baseline: vehicle	TEAD reporter activity	25.5 ± 0.8%
CC(=O)c1nn(-c2ccc(Cl)cc2)/c(=N/N=C(\C)c2ccc(NC(=O)c3ccc(Cl)cc3)cc2)s1	MCF7	–	–	5 µM	–	toxicity	50.7%
CCCn1ncc(CN2CCCC(C(=O)c3cccc(OC(C)C)c3)C2)c1C (centres unmarked)	Trypanosoma cruzi	reporter translation, Renilla luciferase mRNA translation	cell-free extract	40 µM	baseline: DMSO	inhibition	9%

Repeated from above:
Structure (SMILES)	tested on	assay	test system	conditions	how to read	quantity	value
CC(=O)c1nn(-c2ccc(Cl)cc2)/c(=N/N=C(\C)c2ccc(NC(=O)c3ccccc3)cc2)s1	MCF7	–	–	5 µM	–	toxicity	95.6% and 95%
CCOC(=O)c1nn(-c2cccc(Cl)c2)/c(=N/N=C(\C)c2ccc(NC(=O)c3ccccc3)cc2)s1	MCF7	MTT	–	0.312 µM	–	cytotoxicity	93.7%
CC[C@@H](C)[C@H](NC(=O)c1cc(Cl)ccc1OCCNC(=O)OC(C)(C)C)C(=O)Nc1ccc([N+](=O)[O-])cc1Cl	MCF7	–	–	up to 10 µM, 72 h	–	antiproliferative activity	inactive
